# Published values pooled from the literature.
# Parts stem from different laboratories: compare values within a part only.

# Sample 1
# Target: 3-phosphoinositide-dependent protein kinase 1 (PDPK1, Homo sapiens, UniProt O15530)
# Chain of UniProt O15530 (whole entry, looked up): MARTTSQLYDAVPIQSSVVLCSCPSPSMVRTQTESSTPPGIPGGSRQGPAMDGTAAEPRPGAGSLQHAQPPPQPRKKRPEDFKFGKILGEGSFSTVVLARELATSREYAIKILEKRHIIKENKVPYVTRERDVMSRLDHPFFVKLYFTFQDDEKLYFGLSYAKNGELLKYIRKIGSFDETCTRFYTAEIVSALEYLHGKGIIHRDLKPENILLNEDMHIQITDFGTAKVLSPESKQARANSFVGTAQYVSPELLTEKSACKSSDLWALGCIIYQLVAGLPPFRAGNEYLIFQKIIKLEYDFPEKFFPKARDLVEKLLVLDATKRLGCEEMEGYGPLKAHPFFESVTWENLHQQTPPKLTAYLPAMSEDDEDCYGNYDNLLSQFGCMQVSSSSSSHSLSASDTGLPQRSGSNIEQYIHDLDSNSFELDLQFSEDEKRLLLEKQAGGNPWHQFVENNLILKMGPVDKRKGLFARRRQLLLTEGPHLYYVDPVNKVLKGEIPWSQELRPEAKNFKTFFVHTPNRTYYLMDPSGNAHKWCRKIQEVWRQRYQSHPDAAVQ
# Read-out: enzyme activity
# Action: inhibitor
# Tested at: 0.5 µM
# Baseline: control
Compound,remaining activity [%]
COc1cc2ncnc(Nc3ccc(Oc4ccccc4)cc3)c2cc1OC,111
CNC(=O)c1cc(Oc2ccc(NC(=O)Nc3ccc(Cl)c(C(F)(F)F)c3)cc2)ccn1,95.8
Cn1c2ccccc2c2c3c(c4c5ccccc5n(CCC#N)c4c21)CNC3=O,63.2
COc1cc2ncnc(Nc3ccc(F)c(Cl)c3)c2cc1OCCCN1CCOCC1,88.2
Oc1ccc(-c2nc(-c3ccncc3)c(-c3ccc(F)cc3)[nH]2)cc1,98.2
COc1cc2nccc(Oc3ccc(NC(=S)NC(=O)c4ccccc4C)cc3)c2cc1OC,105
CC(C)[C@H](CO)Nc1nc(Nc2cc(N)cc(Cl)c2)c2ncn(C(C)C)c2n1,106
OCC(O)CCON=C1C(c2c(O)[nH]c3ccccc23)=Nc2ccccc21 (stereo not drawn),83.3
Nc1ccc2ncnc(NCCc3ccc(Oc4ccccc4)cc3)c2c1,105
Cc1ccc(Nc2nccc(N(C)c3ccc4c(C)n(C)nc4c3)n2)cc1S(N)(=O)=O,93
CCOC(=O)c1c(C)[nH]c(/C=C2\C(=O)Nc3ccccc32)c1C,92.5
Cc1ccc(NC(=O)c2ccc(CN3CCN(C)CC3)cc2)cc1Nc1nc(-c2cccnc2)cs1,101
O=S(=O)(c1cccc2cnccc12)N1CCCNCC1,91.3
O=C(CCCc1ccc(-c2ccccc2F)cc1)Nc1ccc(O)cc1,112

# Sample 2
# Target: TAR DNA-binding protein 43, full length, His tag (TARDBP, Homo sapiens, UniProt Q13148, residues 1-414)
# Technique: RNA Bind-n-Seq
# Form: RNA
# Medium: in vitro
# Tested at: 20 nM
# Notes: 6-mer, flanks averaged, single round
# Together with: 150 mM KCl
# Baseline: input library
# Reading: higher = stronger binding
Oligonucleotide,6-mer enrichment (R)
AAUUUA,0.647
UGCGGU,1.36
GACAAU,0.712
AUCGCC,0.619
CGUUCU,0.55
AUGUUU,0.774
CAAACG,0.705
AUCGAC,0.604

# Sample 3
# Cell line: sample D normal colon organoid
# Technique: CellTiter-Glo
# Tested at: 1 µM
# Notes: mean of replicates
# Baseline: DMSO
Compound,viability [%]
CN(C)c1ncnc(-c2ccc3nc(Nc4cc(CN5CCN(C(=O)CC(F)(F)F)CC5)ccn4)[nH]c3c2)c1Cl,84.9
O=c1nc(-c2ccccn2)sc2ccccc12,116
O=C(N1CCS(=O)(=O)CC1)N1C[C@H](c2ccc(OC(F)(F)F)cc2)C[C@H](c2nc(C3CC3)no2)C1,134
c1ccc(N2CCN(Cc3nc4ccccc4[nH]3)CC2)nc1,103
CC(=O)N1CCC(c2ccc(C(=O)NC(=N)N)cc2C(F)(F)F)CC1,109
CO[C@@H](C)c1c(Nc2ccc([C@H](N(C)C(=O)C3CCS(=O)(=O)CC3)C(F)(F)F)cc2)cnc2cc(Cl)nn12,83.7
Cc1cnc(-c2cc(Cl)ccc2F)cc1-n1c(=O)n(CC(N)=O)c2cnccc21,118
CC1=C(C#N)C(c2ccc3[nH]nc(C)c3c2)C(C#N)=C(C)N1,108
O=C(Nc1cccnn1)N1CCC(=Cc2cccc(Oc3ccc(C(F)(F)F)cn3)c2)CC1,89.2

# Sample 4
# Target: Histone acetyltransferase KAT6A, winged helix 1, GST fusion (KAT6A, Homo sapiens, UniProt Q92794, residues 1-85)
# Technique: protein binding microarray
# Form: double-stranded DNA, one strand shown
# Medium: in vitro
# Tested at: not given
# Notes: 8-mer, flanks averaged, mean of 2 arrays, mostly near background
# Baseline: not given
# Reading: higher = stronger binding
# Target sequence (chain): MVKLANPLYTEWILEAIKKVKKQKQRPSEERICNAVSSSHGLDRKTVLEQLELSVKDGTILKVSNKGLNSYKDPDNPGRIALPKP
Oligonucleotide,E-score
ACTTCAGC,-0.162
GCGCGACC,0.394
ATTAGAAA,-0.166
CTGGAAGC,-0.0517
AAGGCCCT,-0.0145
CTCCAGAA,-0.213
CCAGGGGA,-0.0437
CTGTCCAC,-0.00743

# Some of these lines once more (sample 4):
Oligonucleotide,E-score
CTGTCCAC,-0.00743
CTGGAAGC,-0.0517
CCAGGGGA,-0.0437
